Experimental data pooled from the literature.
Numbered parts are unrelated; each lists some results of a single study. Positions count from the first letter of the parent shown.

Set 1
Target: ABI1, truncated, D143A, DHFR fusion (Arabidopsis thaliana)
Method: DHFR PCA, deep sequencing
Sample: yeast
Notes: methotrexate growth selection, single substitutions
With: (+)-ABA 4.8 µM
Relative to: wild-type fitted maximum
Reading: higher = stronger binding
Starting sequence: PYL1, truncated, DHFR fusion (Arabidopsis thaliana); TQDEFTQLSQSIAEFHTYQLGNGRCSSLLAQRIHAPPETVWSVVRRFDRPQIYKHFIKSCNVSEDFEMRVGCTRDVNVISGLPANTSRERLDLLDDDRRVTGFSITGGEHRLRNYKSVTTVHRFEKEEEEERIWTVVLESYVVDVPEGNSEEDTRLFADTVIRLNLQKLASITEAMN; partner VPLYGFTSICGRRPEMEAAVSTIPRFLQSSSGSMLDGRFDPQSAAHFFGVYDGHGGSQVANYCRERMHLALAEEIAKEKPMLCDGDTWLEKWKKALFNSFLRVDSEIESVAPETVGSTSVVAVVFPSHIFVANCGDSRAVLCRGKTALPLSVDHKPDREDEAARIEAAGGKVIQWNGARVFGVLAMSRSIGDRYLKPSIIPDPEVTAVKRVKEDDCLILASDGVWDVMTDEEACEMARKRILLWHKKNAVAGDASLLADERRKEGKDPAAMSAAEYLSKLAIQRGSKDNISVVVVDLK
Variant	relative binding score [%]
N114R	15.6
D144H	7.5
S63F	20.2
S9E	78.8
L29H	70.4
T173Y	2.94
N177E	84.1
G71R	1.43
L138M	31.3
A30K	72.7
H34D	78
L169F	1.6
T17E	31
N61S	81.5
E125W	61.1
E128G	95.3
C60Y	15.8
D159L	-9.88
W134Y	93.4
K168Y	6.31

Set 2
Target: Histone acetyltransferase KAT6A, both winged helices, GST fusion (KAT6A, Homo sapiens, UniProt Q92794, residues 1-181)
Method: protein binding microarray
Molecule type: double-stranded DNA, one strand shown
Sample: in vitro
Concentration: not given
Notes: 8-mer, flanks averaged, mean of 2 arrays, mostly near background
Relative to: not given
Reading: higher = stronger binding
Target sequence (chain): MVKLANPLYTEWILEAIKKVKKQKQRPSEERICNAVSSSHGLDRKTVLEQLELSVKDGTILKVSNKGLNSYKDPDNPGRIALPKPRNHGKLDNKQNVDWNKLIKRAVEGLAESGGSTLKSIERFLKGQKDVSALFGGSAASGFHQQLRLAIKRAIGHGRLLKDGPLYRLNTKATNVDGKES
Oligonucleotide	E-score
GTCATAAC	-0.102
GCCCAGCC	-0.096
ATAAAAGG	-0.18
ATTATTTA	-0.0206
AGCGTTAA	0.0554
ATTCGGAG	-0.132
ATGCAGGA	-0.258
GCGAGCGA	0.087
GTGTTTTA	0.161
AGTCTCCA	-0.198
CCAAGCAC	-0.116
AACCTTCA	-0.211
CCTAACTA	-0.065
ATATTTGA	-0.0539
GGACTACA	-0.0447
CTCTCATA	-0.214
AAAGCCCC	-0.214
GCTGCACC	0.0218
AGGCGGGC	0.188

Set 3
Target: Fragile X messenger ribonucleoprotein 1, C-terminal low-complexity region (Fmr1, Mus musculus, UniProt P35922)
Method: RNA Bind-n-Seq
Molecule type: RNA
Sample: in vitro
Concentration: 200 nM
Notes: whole 134-nt RNA, ends assumed
With: 150 mM LiCl
Relative to: input library
Reading: higher = stronger binding
Each molecule: 7-deaza-guanosine replaces G
All sequences stand within: GGGAGUUCUACAGUCCGACGAUC … UGGAAUUCUCGGGUGUCAAGG
Oligonucleotide	log2 enrichment
UCAAGUCCUGUGCUACACAUCGUAUGUACCGAAUCGGUUUGGAAAGGAAAAAGGAAAGUAUUAUGUUACGCCGUUCGGAUCUGCACUUCC	-0.57
UUCCUCAAGUCCUGUGCUACACAUCGUAUGUACCGAAUCGGAGGGAGGAGGAAAGUAUUAUGUUACGCCGUUCGGAUCUGCACUUCCAGC	-2.42
AGUCCUGUGCUACACAUCGUAUGUACCGAAUCGGCCCCGGGGCCCCGGGGCCCCGGGGAAAGUAUUAUGUUACGCCGUUCGGAUCUGCAC	-0.543
CCUCAAGUCCUGUGCUACACAUCGUAUGUACCGAAUCGGGAGGGAGGGAGGGGAAAGUAUUAUGUUACGCCGUUCGGAUCUGCACUUCCA	-1.35
CAAGUCCUGUGCUACACAUCGUAUGUACCGAAUCGGUGGAAAAAAAGGUUUUUGGAAAGUAUUAUGUUACGCCGUUCGGAUCUGCACUUC	-2.01
ACCAUGCAGGUGGGCAUCUUUGGGAAGUGGGGCAAGGGGGGGAUAGGGAGGGGGGUAACACUUUGGGAACAGGUGGUCCGAGGUCGUUUC	1.14
UCAAGUCCUGUGCUACACAUCGUAUGUACCGAAUCGGGAAAGGAAAGGAAAGGGGAAAGUAUUAUGUUACGCCGUUCGGAUCUGCACUUC	-1.11
UGGCCCUGGUGGCAUGCGGGGAGGAAGAGGUGGCCUCAUGGAGCGUGGUGGUCCCGGUGGAAUGUUCAGAGGUGGCCGUGGUGGAGACAG	0.363
CUCAAGUCCUGUGCUACACAUCGUAUGUACCGAAUCGGCCGGCCGGGGCCGGGAAAGUAUUAUGUUACGCCGUUCGGAUCUGCACUUCCA	0.802
AGUCCUGUGCUACACAUCGUAUGUACCGAAUCGGGUUUUUUUGGGUUUGGGAAAGGGAAAGUAUUAUGUUACGCCGUUCGGAUCUGCACU	-1.71
CCUCAAGUCCUGUGCUACACAUCGUAUGUACCGAAUCGGCCGGGGCCGGCCGGAAAGUAUUAUGUUACGCCGUUCGGAUCUGCACUUCCA	0.127

Set 4
Target: RNA binding protein fox-1 homolog 2, RRM domain, GST-SBP tag (RBFOX2, Homo sapiens, UniProt O43251-10, residues 100-194)
Method: RNA Bind-n-Seq
Molecule type: RNA
Sample: in vitro
Concentration: 365 nM
Notes: natural RNA segment, single round, ends assumed
Relative to: no-protein control
Reading: higher = stronger binding
All sequences stand within: GGGAGUUCUACAGUCCGACGAUC … UGGAAUUCUCGGGUGCCAA
Residues (chain): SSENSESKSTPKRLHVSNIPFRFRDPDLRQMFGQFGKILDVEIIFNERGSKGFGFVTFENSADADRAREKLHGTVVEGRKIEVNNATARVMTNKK
Oligonucleotide	RBNS enrichment (R)
GGCCUCAUCUGGGACUGUUGGUUUAGUAAGCCUGUGGUCAACAAGUCACACCUACAUGACUGACCCCCCACCCCCAGUUAAAAGUCUAGCCCAACAGUAUAGCUGGGUGA	0.273
CAUUAAGAAUGGAGUAGUAACUAGAGUGUUAUCUCAGUGCCUGUCUCAUAGUAUAGAAAUGACAAGCACUGCUGGCUAUAGAGAAAAUGUUAUAAAAAUUGUCAUUGAAU	0.929
AUGAUCUUUGUCUUUCCUUUAUCUUGCUUUAUCCUCUUAUCCAAUUCUAGACUCUUAAAUAAUCACUGUAUUUUUCUCAAGUAUUUGUUAUUUUUUAUUAUCCUUUAGAU	0.938
UGGAAUAACCAUGGAGCAAAGAGAACAGAAUCCCAUUCCAAGAGUCCCUCUCUCUCCAACAUCUUGAAGUUUGCAAUUUAGACAGCUCUUUGUUUUCUAAUGCAAUAUGU	0.476
UUAGGUAUCAGAAGAUUUUGCCUUAUUCUGAGGUCGGACUAGGGCCAAGCAAGCUUUUUCCUUCAUAUGAGCUGUCAUACUGUAUUUUGACCUCUUUCUGCACGAAAAAA	1.56
CAGAGGCGAGCAGCCAAGAUGCCCAGGAGCAUGGAAGAAGAGUGACAAGGGCGUCCCCAAGAGACACCCUCACCGUACCAAAGAGCUGAGCUGCUUCUGGGUCUCACGGA	0.509
GCAUGAGAUGAUAUUGUACUUGUAUAGGAUUCUAGCAAUUCAUAAUAAAUAUGUAAGACUAGGCUUUACUGUCUUAUGCUUAUGGACAUUGUAUAUUUGUAUUUUAUGAC	6.06
UGGAAUGCAGCAUUACCUGCUGGACAGAGCAGGGCAGGCAGUUCUAUGCCUUGGAGCUCCUGACUGCAGGGACUCUGUCCCCACACUCAAAAAGACUCAGCUCACUCAAU	0.36
AGCUAAUUGGACUUUUAUGGCUCUAUCUUUUCCUUCAGUGAAGAACCCUAUUUAAAACUGGGUCAUCAUUUGUCCUGUUCUAGCAAGAUAGUCUUCAGUUUCAUUUUCCU	0.493
GAGAAGAGCUGGUGAACCAUAUAAAACUCAAAAGAUUGUCUACUUUAAGAAAUAAAAUACCCUGAAUGGAGCCAAACUCUGUCCCUGUGUGCUGUGUGUGGCUCGUGUGU	0.989
UGAUUUCUUUAAUUUGUCCUUUUUUUCUUUGGUCUAAAACAUUAUUAAAUUUUUGUAAAUAUUUUGAUUUAAUGUGUCUUAGAUCCUCAUUAUUUUAAUACAGGAAAAGA	1.09
UAUAGUUCUAUUGCCUUAUAUGCAAAAUUGUACCCUGUUGCUCAGAGAAAUUAUUCAUAAGAGAAAAGAAUUCCAAUUAAUUAAAUAUCACAAUAGCAUCCCAGAGAGAC	0.581

Set 5
Target: human cyclin B2
Read-out: peptide binding
Method: yeast competitive growth sequencing
Molecule type: peptide
Organism: Saccharomyces cerevisiae
Strain: cyclin B2-Cln2 fusion
Concentration: concentration not given
Notes: peptide tiling library
Reading: direction not given
Molecule	binding enrichment score
TSSAQRRLEIPSGGAD	0.0934
HPESPPRKRLKSKGSD	0.954
DSGFCLDSPGPLDSKE	-1.15
ELGMEHCEKFEISETS	-0.541
TTTTSPRTPPPLTVQD	-0.456
SMTDFYHSKRRLIFSK	-0.119
AGSAKRRLFGEDPPKE	0.832
SPREGHMMDALYAQVK	0.998
ATNSSHTDAHEILVSD	0.38
KRNLLNEFDRII	1.46
NEGVSNAVRRSLYIRD	0.188
RRRIKLPESDSSED	0.777
IFNKPECGRVQRAIFQ	0.706
EHCRVLFLDHVMYTIH	0.391
NLEPNAEFDKRTEFIT	0.494
IPMIAKNLMCELDE	0.793
RVSGLLSWTLSRVLWL	-0.239
LAKRALKYTD	0.565
GTPKRCLDLSNLSSGE	-0.0436
PKNAKRNLSSEFAN	0.822
ASVLSKPIFCFVKD	-0.745
DWDTVERQEEEAPSWD	0.405

Mixed results
Substance	target	test	test system	conditions	how to read	endpoint	result
PhoQ, residues 284 288 289 292 302 303 SLSLLA	PhoP, residues 12 14 15 18 19 FWNTL (Escherichia coli, UniProt P23836)	Sort-seq, refers to: YFP reporter	E. coli	PhoQ-PhoP variant library, with: 10 µM Mg2+	relative to: high Mg2+ state, higher = stronger signaling	fold induction	19.5
